Measurements pooled from the literature.
Lines come from different studies, so protocols differ. ± gives the spread as reported.
Organism: SARS-CoV-2

SMILES	assay	test system	setting	EC50 [µM]
CCn1ccc(-c2cc(-c3cnn(C)c3)cc([C@@H](C)NC(=O)c3cc(OCCN(C)C)ccc3C)c2)n1	viral replication	Caco-2, icSARS-CoV-2-nLuc reporter		0.42
Cc1ccc(N2CC(N3CCC(C)(O)CC3)C2)cc1C(=O)NC1(c2ccc3c4c(cccc24)CC3)CC1	viral replication	Vero C1008, Omicron BA.5		0.409
Cc1ccc(CNC(=O)c2cccc(C(F)(F)F)c2Cl)cc1C(=O)N[C@H](C)c1cccc2ccccc12	viral replication	Vero C1008, WK-521 ancestral Wuhan		> 100
NCCNc1ccnc2cc(Cl)ccc12	viral replication	Vero 76, MUC-IMB-1/2020	30 h	1.5 ± 1
CC[C@@H](C)[C@@H](C(=O)OC)n1[se]c2ccccc2c1=O	viral replication, RT-qPCR	Vero	48 h	11
CNC(=O)C[C@H](Cc1ccncc1)NC(=O)[C@@H](Cc1cccc(Br)c1)NC(=O)[C@@H](N)Cc1ccsc1	viral replication	USA-WA1/2020	24 h	> 10
Cc1ccc(CNC(=O)c2ccc(Br)cc2)cc1C(=O)N[C@H](C)c1cccc2ccccc12	viral replication	Vero C1008, WK-521 ancestral Wuhan		26.2 ± 3.9
Cc1ccccc1CN1CCCC2=CC3CC(CN4CCCCC34)C21 (stereo not shown)	pseudovirus entry		pseudovirus	97
CC(=O)OC1(C)CC(C=C(C)CCC=C(C)C)OC2(C=C(CO)C3CC(=O)C(C)=CC3O2)C1 (stereo not shown)	viral replication, refers to: nucleocapsid protein	Calu-3, Delta B.1.617.2		4.9
COc1ccc(-c2cnc3c(C#Cc4cccnc4)snc3c2)cc1OC	viral replication	USA-WA1/2020		0.13
CC(C)(C)[C@H](NC(=O)C(F)(F)F)C(=O)N1C[C@H]2[C@@H]([C@H]1C(=O)N[C@H](C#N)C[C@@H]1CCNC1=O)C2(C)C	dsRNA staining	Caco-2, Omicron BA.5		0.4
Cc1ccc(CN)cc1C(=O)N[C@H](C)c1cccc2ccccc12	viral replication	Vero C1008, WK-521 ancestral Wuhan		15.9 ± 1.3
CN(C)CCCCNC(=O)C[C@H](Cc1ccc(F)cc1)NC(=O)[C@@H](Cc1ccccc1Cl)NC(=O)[C@H](N)Cc1ccccc1C#N	viral replication	USA-WA1/2020	24 h	> 10
Cc1ccc(CNC(=O)c2ccc(Br)cc2Cl)cc1C(=O)N[C@H](C)c1cccc2ccccc12	viral replication	Vero C1008, WK-521 ancestral Wuhan		> 100
CC(C)C[C@@H]1NC(=O)[C@H](C(C)C)NC(=O)[C@H](C)NC(=O)[C@H](Cc2ccc(O)cc2)NC(=O)[C@H](CCC(N)=O)NC(=O)[C@H](CC(C)C)NC(=O)[C@@H](Cc2ccc(O)cc2)NC(=O)CSC[C@@H](C(N)=O)NC(=O)[C@H](CCC(=O)O)NC(=O)[C@H](CCCNC(=N)N)NC(=O)[C@H](CCCNC(=N)N)NC(=O)[C@H](CCCCN)NC(=O)[C@H](Cc2c[nH]cn2)NC(=O)[C@H](CCCNC(=N)N)NC1=O	viral replication			> 50
CC[C@@H](C)[C@H](NC(=O)c1ccccc1[Se][Se]c1ccccc1C(=O)N[C@H](C(=O)OC)[C@H](C)CC)C(=O)OC	viral replication, RT-qPCR	Vero	48 h	11
C[C@](C(=O)NC1CCOCC1)(c1cncnc1)N(C(=O)[C@H](F)Cl)c1ccc(OC(F)(F)Cl)cc1	viral replication	Vero C1008, BA.5		0.04
C=CCn1c(C)cc(C(=O)COn2nnc3ccc(S(=O)(=O)N(C)C)cc32)c1C	viral replication			> 100
CC(NC(=O)C(Cc1ccccc1)NC(=O)OCc1ccccc1)C(=O)CF (stereo not shown)	virus-induced cytopathic effect	Vero E6, USA-WA1/2020	72 h	0.13
N#Cc1ccccc1CC(N)C(=O)NC(Cc1ccc(Cl)cc1Cl)C(=O)NC(CC(=O)NCCCc1cccnc1)Cc1ccc(F)cc1 (stereo not shown)	viral replication	USA-WA1/2020	24 h	0.3
CN(C)c1ccc(N(Cc2cc(Cl)cs2)C(=O)Cc2cncc3cccc(O)c23)cc1	dsRNA staining	Caco-2, Omicron XBB.1.5		0.095
Cc1ccc(N2CCN(C)CC2)cc1C(=O)NC1(c2ccc3c4c(cccc24)CC3)CC1	viral replication	Vero C1008, XBB.1		0.45
COc1cccc(CN2CCCC3=CC4CC(CN5CCCCC45)C32)c1 (stereo not shown)	pseudovirus entry		pseudovirus	152
CCOC(=O)c1c(CSc2ccccc2)n(C)c2cc(-c3cccnc3)c(O)c(CN3CCN(CCOCCO)CC3)c12		Vero C1008, MEX-BC2/2020	96 h	4.3
Cc1ccc(N)cc1C(=O)N[C@H](C)c1cccc2ccccc12	viral replication	Caco-2, icSARS-CoV-2-nLuc reporter		> 20
Cc1ccc(O)cc1CN(C)[C@H](C)c1cccc2ccccc12	viral replication	Caco-2-hACE2, USA-WA1/2020	24 h	≤ 10

SMILES	assay	test system	setting	EC50 [µM]
[2H]C1([2H])CC[C@@H](C[C@@H](C#N)NC(=O)[C@@H]2[C@@H]3[C@H](CN2C(=O)[C@@H](NC(=O)C(F)(F)F)C(C)(C)C)C3(C)C)C(=O)N1	viral replication	Canada/VIDO 01/2020	added: efflux inhibitor CP-100356	0.07
CC1(C)C=Cc2c(ccc(C3COc4cc(O)cc(O)c4C3=O)c2O)O1 (stereo not shown)	viral replication, qRT-PCR	Vero E6 cells, WIV04	24 h	20.3 ± 1.98
N#Cc1ccccc1C[C@@H](N)C(=O)N[C@H](Cc1ccc(Cl)cc1Cl)C(=O)N[C@H](CC(=O)NCCNc1nnc(N)[nH]1)Cc1ccc(F)cc1	viral replication	USA-WA1/2020	24 h	> 10
COc1ccccc1-c1nc2sc3c(c2c(=O)o1)CCC3	viral replication			> 100
O=C(CCCCCCCCCCc1ccc(O)c(O)c1)c1c(O)cccc1O	MTT	Vero E6/TMPRSS2, WK-521 ancestral		14
CCC(CC)COC(=O)[C@H](C)N[P@](=O)(OC[C@H]1O[C@@](C#N)(c2ccc3c(N)ncnn23)[C@H](O)[C@@H]1O)Oc1ccccc1	viral replication		1 h	0.294
CNC(=O)C[C@H](Cc1ccccc1)NC(=O)[C@@H](Cc1ccc(Cl)cc1Cl)NC(=O)[C@H](N)Cc1ccccc1C#N	viral replication	USA-WA1/2020	24 h	2
C1=C2CCCN(Cc3ccccc3)C2C2CC1C1CCCCN1C2 (stereo not shown)	pseudovirus entry		pseudovirus	163
O=C1C(O)=C(Nc2ccccc2Cl)C(=O)c2ccccc21	viral replication	Calu-3	48 h	2.3 ± 0.3
C[C@@H]1O[C@@H](n2c3ccccc3c3c4c(c5c6ccccc6[nH]c5c32)CNC4=O)C[C@@H](N)[C@H]1O	viral replication, refers to: dsRNA	Calu-3, Omicron BA.2		0.394
Cc1cc(C)nc(Sc2nc3sccn3c2[N+](=O)[O-])n1	viral replication			> 100
C#CCNC(=O)C[C@H](Cc1ccc(F)cc1)NC(=O)[C@@H](Cc1ccc(Cl)cc1Cl)NC(=O)[C@H](N)Cc1ccccc1C#N	viral replication	USA-WA1/2020	24 h	0.9
CC(=O)N(CCCc1cn(-c2ccc(CN3CCOCC3)cc2)nn1)CCNc1ccnc2cc(Cl)ccc12	viral replication	Caco-2	30 h	15.9 ± 14.1
Cc1ccc(NCC(=O)N2CCCC3=CC4CC(CN5CCCCC45)C32)cc1 (stereo not shown)	pseudovirus entry		pseudovirus	> 267
COc1ccc2c(O[C@@H]3C[C@H]4C(=O)N[C@]5(C(=O)NS(=O)(=O)C6CC6)C[C@H]5/C=C\CCCCN(C)C(=O)[C@@H]4C3)cc(-c3nc(C(C)C)cs3)nc2c1C	viral replication, plaque	Vero C1008	16 h	1.4 ± 0.09
CN(C(=O)CN1CCCC2=CC3CC(CN4CCCCC34)C21)c1ccc(Br)cc1 (stereo not shown)	pseudovirus entry		pseudovirus	42.3
CCn1ccc(-c2cc(-c3cnn(C)c3)cc([C@@H](C)NC(=O)c3cc(OCCN(C)C)ccc3C)c2)n1	viral replication, plaque	recombinant E167G		3
C[C@H](c1cccc2ccccc12)N(C)Cc1ccc(O)cc1Cl	viral replication	Vero E6, USA-WA1/2020	24 h	22.3
CN1CCN(C(=O)C[C@H](Cc2ccc(F)cc2)NC(=O)[C@@H](Cc2ccc(Cl)cc2Cl)NC(=O)[C@H](N)Cc2ccccc2C#N)CC1	viral replication	USA-WA1/2020	24 h	3.1
Cc1ccc(OCCN(C)C)cc1C(=O)N[C@H](C)c1cc(-c2cnn(C)c2)cc(-c2cnn(C3CC3)c2)c1	viral replication	Caco-2, icSARS-CoV-2-nLuc reporter		0.35
CC(C)C[C@H](NC(=O)c1cc2c(OC(F)(F)F)cccc2[nH]1)C(=O)N[C@@H](C[C@@H]1CCNC1=O)C(=O)c1nc2ccccc2s1	viral replication, RT-qPCR	VeroE6, WK-521		2.9 ± 0.15
Cc1ccc(CNC(=O)c2c(F)cccc2Br)cc1C(=O)N[C@H](C)c1cccc2ccccc12	viral replication	Vero C1008, WK-521 ancestral Wuhan		> 100
Cc1cncc(C(=O)N2CCC(=C3c4ccccc4CS(=O)(=O)c4ccccc43)CC2)c1	viral replication	USA-WA1/2020		0.042
CC(C)C(=O)OC[C@H]1O[C@@](C#N)(n2ccc(N)nc2=O)[C@H](O)[C@@H]1O	viral replication, qRT-PCR of viral RNA	Vero, Washington		3.6 ± 0.3
O=C(c1ccc(Cl)c(Cl)c1)N1CCCC2=CC3CC(CN4CCCCC34)C21 (stereo not shown)	pseudovirus entry		pseudovirus	197
CO/C1=C\C(C)=C\[C@@H](C)[C@@H](O)[C@@H](C)C/C(C)=C/C=C/[C@H](OC)[C@@H]([C@@H](C)[C@@H](O)[C@H](C)C(=O)/C=C/[C@H](C)[C@H](O)C(C)C)OC1=O	viral replication, refers to: dsRNA	Calu-3, Delta B.1.617.2		0.05

Some of these lines once more:
SMILES	assay	test system	setting	EC50 [µM]
N#Cc1ccccc1C[C@@H](N)C(=O)N[C@H](Cc1ccc(Cl)cc1Cl)C(=O)N[C@H](CC(=O)NCCNc1nnc(N)[nH]1)Cc1ccc(F)cc1	viral replication	USA-WA1/2020	24 h	> 10
COc1ccccc1-c1nc2sc3c(c2c(=O)o1)CCC3	viral replication			> 100
O=C(CCCCCCCCCCc1ccc(O)c(O)c1)c1c(O)cccc1O	MTT	Vero E6/TMPRSS2, WK-521 ancestral		14
